Experimental data pooled from the literature.
Numbered parts are unrelated; each lists some results of a single study.

Sample 1
Target: Histone acetyltransferase KAT6A, winged helix 1, GST fusion (KAT6A, Homo sapiens, UniProt Q92794, residues 1-85)
Technique: protein binding microarray
Molecule type: double-stranded DNA, one strand shown
Medium: in vitro
Concentration: not given
Setting: 8-mer, flanks averaged, mean of 2 arrays, mostly near background
Reference: not given
Direction: higher = stronger binding
Residues (chain): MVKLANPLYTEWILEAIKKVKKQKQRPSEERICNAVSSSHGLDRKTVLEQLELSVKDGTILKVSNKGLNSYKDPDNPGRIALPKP
Oligonucleotide	E-score
GTTGATGA	-0.15
CCTTCAAA	-0.119
CACGTGGG	-0.228
ACCTTACA	-0.1
ATGACTCA	-0.0837
AAGGAGTC	-0.258
GACGTTAA	-0.0475
CACACAGC	-0.0359
ATGTCTAC	-0.0132
ATGTGACA	-0.0275
ATAGAAGA	-0.035
ATCCCAGC	-0.225
AGGTAGTC	-0.186
CCGGCCGC	0.443
CAGTCACA	-0.287
CAACGAGG	-0.145
CCGCCCGC	0.443
AGTGAAAT	-0.316
ACCCTGGG	-0.135
AACCTCGC	0.0873
CGAGTAGA	0.00246
CTCACTCC	-0.106

Sample 2
Target: RNA binding protein fox-1 homolog 2, RRM domain, GST-SBP tag (RBFOX2, Homo sapiens, UniProt O43251-10, residues 100-194)
Technique: RNA Bind-n-Seq
Molecule type: RNA
Medium: in vitro
Concentration: 365 nM
Setting: natural RNA segment, single round, ends assumed
Reference: no-protein control
Direction: higher = stronger binding
Shared flanks, not repeated: GGGAGUUCUACAGUCCGACGAUC … UGGAAUUCUCGGGUGCCAA
Residues (chain): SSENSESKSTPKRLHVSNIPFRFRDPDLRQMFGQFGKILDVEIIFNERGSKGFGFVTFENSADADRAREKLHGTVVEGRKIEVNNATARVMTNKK
Oligonucleotide	RBNS enrichment (R)
GGGCCCCUGGUGCCACUGCGUAGUGUUCACUAACACCCCGCCUCACCAGGCAGGAGCCCCGACCCCCCAGCAGCGGUGCCACUCUUCCAAGCCUCUUGGUGCACAAUAAA	0.403
UCUACCUUGAUGUUUUUAAAAAAACACCCAUCUCCAGCUCACACACUGUUUUCUGGAAAUAAAGCCCUACUCUACAAAAAAAAUGAAGAUGGCUUGUGGGAAAAGAUCUC	0.332
CCCUCCUAUUUCUGCCUCCCUGCUGGGAGCUUUCCUGUUCCCUGGUGUUCCACGAAGGAGGCUCUUCUCAGUCUCUGGGCUCUCCUUUAGAGUUAAGGUCUUAAAAUGUA	0.439
CAGUGCUUGGCAAUCGUCCUUCUUACAGCAGUAAGCAAAAAUUAGCAAGGAACGUGUCCGCAUGGCCUCUCAGCUUGGUAUGUGAAAAGGAAAUAGCAUACUUUUUCAAA	1.23
CGUGUUGUACAUAGAAUGAUGAAGGGUUCCACUGUUGUUGUAUGUCUUAAAUUUAUUUAAAACUUUUUUUAAUCCAGAUGUAGACUAUAUUCUAAAAAAUAAAAAAGCAA	0.734
AGGUGGAAGAGGAGAACUGGCUCCCCACAGUUGUCCCCUGACCCUCACCCCUAACCCCCAAUCACAAAGAAAGGUAAUAAAAAUAUAAAUUCCAAGGAUUAGGAAAAGUG	0.461
GUCAUAAGCACUACCACUAAGGACUCUCUGGAGGACUCCUCAGUAUCAUCUGCUCCAGGAAGCCCCCUAGACUACCUCCUGAGUCUGGACAAAGCCUCCUGAUUCUACCU	0.601
GCUGGCCUUCGAGGGCGAGGCCGCCUGCCGGGCCUUCCUAGAGCCCCUGGGCCUGGCCUACACGGGCCCGGACAACUCCAGCAUCGACUGCCGCCUCAGCCUGGCGCAGC	0.416
AGCGUUUUCGACCUUAUUAAACCUCUUUUAGUGCUUCUAAGCAAGUCAGGUCUGUGGCUCUGAGGCCUUCACUUAGAGCUGUCAGUGUGAUUUCCAGGAUGAGUCAGGGU	0.594
AUCAAGAAACUGAAUGGAGCUCCACACCUCUAGAUCUCAAUGAUUCGGUUGGCUUCUCAGUGGAACCCAACUGAAGUUGUCUAAUUGCCUCUUCUCAGAGUUCAGGAAAA	0.318
UUUGCAGUGGGGCUAGGACAGUUGAUUCAACAAAGUAUUUUUUUCUUUUUUCUCAGUCCUAAUUUGAACAGGUCAAAGAUGUGUUCAGGCAUUCCAGGUAACAGGUGUGU	0.368
ACGAAAGAAAUAUCAGGGACUUUUGUUGACUAUUUACAACUCAGUUUUACAUUUAAAUUCAGGCAGUGUUAAUAUGCCAAGGUAGGGAAUGUGCCUUUUUCAGAGUUGGC	0.363

Sample 3
Target: Ras GTPase-activating protein-binding protein 1, C-terminal RGG region (G3BP1, Homo sapiens, UniProt Q13283)
Sequence of UniProt Q13283 (whole entry, looked up): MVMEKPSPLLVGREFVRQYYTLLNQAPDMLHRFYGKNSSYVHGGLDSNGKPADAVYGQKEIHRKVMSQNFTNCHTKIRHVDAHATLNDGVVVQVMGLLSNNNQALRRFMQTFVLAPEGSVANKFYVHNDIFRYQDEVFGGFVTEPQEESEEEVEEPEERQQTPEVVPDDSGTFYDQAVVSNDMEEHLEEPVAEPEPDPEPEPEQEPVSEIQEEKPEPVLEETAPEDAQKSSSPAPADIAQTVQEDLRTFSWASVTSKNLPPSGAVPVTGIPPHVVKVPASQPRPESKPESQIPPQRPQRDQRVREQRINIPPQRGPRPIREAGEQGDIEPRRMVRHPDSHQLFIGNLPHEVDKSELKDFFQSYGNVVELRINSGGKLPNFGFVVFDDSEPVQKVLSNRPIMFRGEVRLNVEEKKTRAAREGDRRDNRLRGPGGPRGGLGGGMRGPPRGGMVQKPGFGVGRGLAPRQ
Technique: RNA Bind-n-Seq
Molecule type: RNA
Medium: in vitro
Concentration: 1 µM
Setting: whole 134-nt RNA, ends assumed
Added: 150 mM KCl
Reference: input library
Direction: higher = stronger binding
Shared flanks, not repeated: GGGAGUUCUACAGUCCGACGAUC … UGGAAUUCUCGGGUGUCAAGG
Oligonucleotide	log2 enrichment
CUCAAGUCCUGUGCUACACAUCGUAUGUACCGAAUCGGUGGAAAAAAAGGAGGAAAGUAUUAUGUUACGCCGUUCGGAUCUGCACUUCCA	-1.2
UCAAGUCCUGUGCUACACAUCGUAUGUACCGAAUCGGAAAAAAAGGAAAGGAGGAAAGUAUUAUGUUACGCCGUUCGGAUCUGCACUUCC	-1.34
AGUCCUGUGCUACACAUCGUAUGUACCGAAUCGGAAAAAGGUUUUUUUGGUUUUUGGAAAGUAUUAUGUUACGCCGUUCGGAUCUGCACU	-2.56
CUCAAGUCCUGUGCUACACAUCGUAUGUACCGAAUCGGAAAAAGGUGGUUUGGAAAGUAUUAUGUUACGCCGUUCGGAUCUGCACUUCCA	-1.18
CGCUAAAGAGGAGCACGGUGGACUGAUGUGAGCUUCUCUUCCUGCCCCUUCCUCCCUGAUGUCCACUCCCUUCACCUUCCUCACGCCCGU	0.0574
UGGCCCUGGUGGCAUGCGGGGAGGAAGAGGUGGCCUCAUGGAUCGUGGUGGUCCCGGUGGAAUGUUCAGAGGCGGCCGUGGUGGAGACAG	3.44
GAGUCCGGUUCGUGUUCGUCCGCGGAGAUCUCUCUCAUCUCGCUCGGCUGCGGGAAAUCGGGCUGAAGCGACUGAGUCCGCGAUGGAGGU	-1.38
GCAGGAAGUAAAAACAAAUGGAAAUGCUUCAGAUAGUGGCAGGGGUGGGGGUUGCUAAGGAAAGGGUGGGAUGGGAGUGGGUAAAGAGUU	1.73
UGUGAGGUGGAUUUUGUUUAUUUUUUUAGCUCAUUUCCAGGGGUGGGAAUUUUUUUUUAAUAUGUGUCAUGAAUAAAGUUGUUUUUGAAA	2.99
CAAGUCCUGUGCUACACAUCGUAUGUACCGAAUCGGGUUUGGGGUUUGGGUUUGGAAAGUAUUAUGUUACGCCGUUCGGAUCUGCACUUC	-0.897
AGUCCUGUGCUACACAUCGUAUGUACCGAAUCGGCCCCGGGCCCCGGGGCCCCGGGGAAAGUAUUAUGUUACGCCGUUCGGAUCUGCACU	-2.09
CUCAAGUCCUGUGCUACACAUCGUAUGUACCGAAUCGGGUUGGUUGGGUUGGGAAAGUAUUAUGUUACGCCGUUCGGAUCUGCACUUCCA	0.369
CAAGUCCUGUGCUACACAUCGUAUGUACCGAAUCGGGGUGGGGUUUGGGGUGGGGAAAGUAUUAUGUUACGCCGUUCGGAUCUGCACUUC	3.06
UGGCUCUGGUGGCAUGCGGGGAGGAAGAGGUGGCCUCAUGGAUCGUGGUGGUCCCGGUGGAAUGUUCAGAGGUGGCCGUGGUGGAGACAG	1.88

Sample 4
Target: Centromere-binding protein 1, full length, N-terminal tag (CBF1, Saccharomyces cerevisiae, UniProt P17106, residues 1-351)
Sequence of UniProt P17106 (whole entry, looked up): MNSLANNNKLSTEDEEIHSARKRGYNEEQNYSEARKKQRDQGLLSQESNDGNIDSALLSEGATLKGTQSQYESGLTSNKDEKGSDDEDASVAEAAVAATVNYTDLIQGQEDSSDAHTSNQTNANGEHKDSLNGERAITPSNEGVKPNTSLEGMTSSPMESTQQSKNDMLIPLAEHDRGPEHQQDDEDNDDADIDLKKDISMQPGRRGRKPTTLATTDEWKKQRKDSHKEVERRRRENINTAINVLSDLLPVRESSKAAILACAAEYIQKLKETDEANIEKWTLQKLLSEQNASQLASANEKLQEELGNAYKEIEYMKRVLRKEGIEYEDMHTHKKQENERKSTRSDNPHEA
Technique: protein-binding microarray
Molecule type: double-stranded DNA, one strand shown
Medium: in vitro
Concentration: 0.8 µM
Setting: whole 60-bp probe, no competitor
Direction: higher = stronger binding
Shared flanks, not repeated: … GTCTTGATTCGCTTGACGCTGCTG
Oligonucleotide	fluorescence intensity
GAAACATGTCTATGTTTCGTGCTTTTGCCGATTTAG	455 a.u.
CTAACTATTCTTATTAACGTGGTAATATTAAAGTTC	635 a.u.
TGTACGAAGCTATTCCACGAGCGTATAGTAGTTAGG	515 a.u.
GAAAGTATATATTGTCACGATTGTGGTTCATTATAG	663 a.u.
CTAGCTTGTGTTGATCACGTCTTACGGGAAATATTC	844 a.u.
CTAGTACAGTTGCATCAGGTTGATAGTTATGTTTTC	509 a.u.
GAAACGAAACTACCCCACGTTTCGATTTTTGCCTAG	576 a.u.
CTAGGAAAAGAAGATGGTGACATATGCTTAGACTTC	511 a.u.
CTAATGACTACGCATTATCACGTAGGCATATATTTC	586 a.u.
GAATTTGTTGTGCGTCACCCTTCCATGATTATATAG	548 a.u.
TGTACGAAGCTATGTGATCAGTATATAGTAGTTAGG	594 a.u.
GAAACATAGCCCAAAGTCATGAGGAGAGCTTCTTAG	524 a.u.
CTAAGAAACTAAAATCTGATGATGAAATTGATATTC	538 a.u.
CTACAGAAAATAGTCGACGTCAGTCACCTCCAGTTC	551 a.u.
GAATCAATTTTTGTGATCATCTTTTGTTGCAAGTAG	550 a.u.

Sample 5
Target: Sal-like protein 4, full length isoform A (SALL4, Homo sapiens, UniProt Q9UJQ4, residues 1-1053)
Sequence of UniProt Q9UJQ4 (whole entry, looked up): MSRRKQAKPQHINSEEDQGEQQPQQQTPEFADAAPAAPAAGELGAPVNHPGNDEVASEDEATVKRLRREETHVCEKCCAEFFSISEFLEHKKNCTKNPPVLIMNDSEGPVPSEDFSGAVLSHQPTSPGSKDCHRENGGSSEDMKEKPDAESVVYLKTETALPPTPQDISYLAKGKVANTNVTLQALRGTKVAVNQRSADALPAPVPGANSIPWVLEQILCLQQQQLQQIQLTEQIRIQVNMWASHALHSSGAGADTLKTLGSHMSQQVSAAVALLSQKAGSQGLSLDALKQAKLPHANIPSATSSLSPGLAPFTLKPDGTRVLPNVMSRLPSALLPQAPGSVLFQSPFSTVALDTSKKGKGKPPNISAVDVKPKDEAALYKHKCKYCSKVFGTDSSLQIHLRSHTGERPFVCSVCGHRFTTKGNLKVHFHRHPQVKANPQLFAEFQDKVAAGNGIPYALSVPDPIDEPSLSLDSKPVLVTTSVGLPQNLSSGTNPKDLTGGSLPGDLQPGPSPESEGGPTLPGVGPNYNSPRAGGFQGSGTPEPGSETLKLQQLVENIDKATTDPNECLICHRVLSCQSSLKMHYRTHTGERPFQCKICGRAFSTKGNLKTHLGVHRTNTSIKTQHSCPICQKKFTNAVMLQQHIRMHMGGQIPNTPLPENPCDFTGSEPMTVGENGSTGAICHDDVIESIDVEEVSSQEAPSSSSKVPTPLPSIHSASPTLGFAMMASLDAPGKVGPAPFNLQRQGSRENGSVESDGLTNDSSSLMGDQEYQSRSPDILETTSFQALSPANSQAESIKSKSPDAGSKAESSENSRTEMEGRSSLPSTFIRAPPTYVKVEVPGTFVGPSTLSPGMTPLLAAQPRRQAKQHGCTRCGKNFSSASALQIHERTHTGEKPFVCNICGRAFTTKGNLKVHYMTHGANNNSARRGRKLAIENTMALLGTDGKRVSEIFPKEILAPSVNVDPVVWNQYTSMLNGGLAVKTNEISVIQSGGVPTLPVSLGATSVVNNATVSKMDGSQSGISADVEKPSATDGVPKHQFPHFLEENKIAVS
Technique: universal PBM
Molecule type: double-stranded DNA, one strand shown
Medium: in vitro
Concentration: 600 nM
Setting: 8-mer, flanks averaged, mean of replicates
Direction: higher = stronger binding
Oligonucleotide	E-score
ATTCGTGA	0.151
AAAGAACA	0.22
GGACATCC	-0.29
CCCAGATA	-0.0352
ACCAGGCC	-0.297
ATTTAAGG	0.0268
ACTCTTTC	-0.0219
CCTATCGC	-0.244
ACCAACAT	0.21
CGCCCCGC	-0.331
AAATCCCA	0.139
GACCGACA	-0.226
CCATCGTC	-0.178
GACGACTC	-0.259
GTCCCCCA	-0.278
ATCATTAG	0.261
AAGGACAA	0.0799
CCCCAGCA	-0.201
AGTTCCCG	-0.278
ATCTGTTC	-0.0606
ACATGAAA	0.181
ATAAAGAC	0.166
CCTTGCTC	-0.233
AATCCGCT	-0.0769
GAGCGTAA	0.036

For quick reference, copied from above (sample 1):
Oligonucleotide	E-score
CAACGAGG	-0.145
CCGCCCGC	0.443
AGTGAAAT	-0.316
ACCCTGGG	-0.135
AACCTCGC	0.0873
